Measured values of several laboratories.
Numbered parts are unrelated; each lists some results of a single study. “And” joins repeats or separate records; there may be more than shown.
Chain of UniProt P42679 (whole entry, looked up): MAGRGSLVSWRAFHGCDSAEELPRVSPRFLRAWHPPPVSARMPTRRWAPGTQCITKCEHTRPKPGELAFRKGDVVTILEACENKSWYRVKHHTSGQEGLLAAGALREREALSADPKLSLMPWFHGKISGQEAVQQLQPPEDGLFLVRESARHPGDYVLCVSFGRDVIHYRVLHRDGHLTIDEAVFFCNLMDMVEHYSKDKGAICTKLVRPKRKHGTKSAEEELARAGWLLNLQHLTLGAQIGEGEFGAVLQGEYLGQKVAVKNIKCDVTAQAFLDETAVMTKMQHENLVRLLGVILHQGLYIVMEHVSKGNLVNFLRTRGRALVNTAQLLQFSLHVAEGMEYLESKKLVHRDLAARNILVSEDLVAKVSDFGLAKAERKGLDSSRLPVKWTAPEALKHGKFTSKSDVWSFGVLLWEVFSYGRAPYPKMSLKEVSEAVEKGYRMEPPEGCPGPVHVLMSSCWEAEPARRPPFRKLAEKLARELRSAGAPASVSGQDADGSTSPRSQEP
Chain of UniProt Q99640 (whole entry, looked up): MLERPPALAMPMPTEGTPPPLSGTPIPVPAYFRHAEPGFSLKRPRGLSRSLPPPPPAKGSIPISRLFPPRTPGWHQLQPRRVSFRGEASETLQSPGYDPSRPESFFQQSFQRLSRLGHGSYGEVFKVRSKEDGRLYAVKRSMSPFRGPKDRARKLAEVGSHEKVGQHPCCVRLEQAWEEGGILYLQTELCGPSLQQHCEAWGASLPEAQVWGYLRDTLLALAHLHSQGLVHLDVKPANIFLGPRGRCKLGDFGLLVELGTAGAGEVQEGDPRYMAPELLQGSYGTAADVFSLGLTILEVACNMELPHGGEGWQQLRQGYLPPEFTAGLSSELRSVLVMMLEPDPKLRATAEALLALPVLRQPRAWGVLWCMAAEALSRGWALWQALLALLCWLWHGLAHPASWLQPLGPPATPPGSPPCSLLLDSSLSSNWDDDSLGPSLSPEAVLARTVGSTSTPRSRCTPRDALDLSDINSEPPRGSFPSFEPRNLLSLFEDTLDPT
Chain of UniProt Q6P2M8 (whole entry, looked up): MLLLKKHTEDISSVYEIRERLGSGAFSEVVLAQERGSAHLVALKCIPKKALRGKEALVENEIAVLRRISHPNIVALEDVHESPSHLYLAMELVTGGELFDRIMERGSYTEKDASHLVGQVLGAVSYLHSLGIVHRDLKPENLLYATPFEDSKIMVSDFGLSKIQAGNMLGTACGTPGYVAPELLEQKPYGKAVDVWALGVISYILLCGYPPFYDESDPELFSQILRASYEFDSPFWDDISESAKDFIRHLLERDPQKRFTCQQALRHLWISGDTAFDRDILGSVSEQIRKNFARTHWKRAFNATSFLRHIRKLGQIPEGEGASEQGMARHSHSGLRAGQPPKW
Chain of UniProt Q5VT25 (whole entry, looked up): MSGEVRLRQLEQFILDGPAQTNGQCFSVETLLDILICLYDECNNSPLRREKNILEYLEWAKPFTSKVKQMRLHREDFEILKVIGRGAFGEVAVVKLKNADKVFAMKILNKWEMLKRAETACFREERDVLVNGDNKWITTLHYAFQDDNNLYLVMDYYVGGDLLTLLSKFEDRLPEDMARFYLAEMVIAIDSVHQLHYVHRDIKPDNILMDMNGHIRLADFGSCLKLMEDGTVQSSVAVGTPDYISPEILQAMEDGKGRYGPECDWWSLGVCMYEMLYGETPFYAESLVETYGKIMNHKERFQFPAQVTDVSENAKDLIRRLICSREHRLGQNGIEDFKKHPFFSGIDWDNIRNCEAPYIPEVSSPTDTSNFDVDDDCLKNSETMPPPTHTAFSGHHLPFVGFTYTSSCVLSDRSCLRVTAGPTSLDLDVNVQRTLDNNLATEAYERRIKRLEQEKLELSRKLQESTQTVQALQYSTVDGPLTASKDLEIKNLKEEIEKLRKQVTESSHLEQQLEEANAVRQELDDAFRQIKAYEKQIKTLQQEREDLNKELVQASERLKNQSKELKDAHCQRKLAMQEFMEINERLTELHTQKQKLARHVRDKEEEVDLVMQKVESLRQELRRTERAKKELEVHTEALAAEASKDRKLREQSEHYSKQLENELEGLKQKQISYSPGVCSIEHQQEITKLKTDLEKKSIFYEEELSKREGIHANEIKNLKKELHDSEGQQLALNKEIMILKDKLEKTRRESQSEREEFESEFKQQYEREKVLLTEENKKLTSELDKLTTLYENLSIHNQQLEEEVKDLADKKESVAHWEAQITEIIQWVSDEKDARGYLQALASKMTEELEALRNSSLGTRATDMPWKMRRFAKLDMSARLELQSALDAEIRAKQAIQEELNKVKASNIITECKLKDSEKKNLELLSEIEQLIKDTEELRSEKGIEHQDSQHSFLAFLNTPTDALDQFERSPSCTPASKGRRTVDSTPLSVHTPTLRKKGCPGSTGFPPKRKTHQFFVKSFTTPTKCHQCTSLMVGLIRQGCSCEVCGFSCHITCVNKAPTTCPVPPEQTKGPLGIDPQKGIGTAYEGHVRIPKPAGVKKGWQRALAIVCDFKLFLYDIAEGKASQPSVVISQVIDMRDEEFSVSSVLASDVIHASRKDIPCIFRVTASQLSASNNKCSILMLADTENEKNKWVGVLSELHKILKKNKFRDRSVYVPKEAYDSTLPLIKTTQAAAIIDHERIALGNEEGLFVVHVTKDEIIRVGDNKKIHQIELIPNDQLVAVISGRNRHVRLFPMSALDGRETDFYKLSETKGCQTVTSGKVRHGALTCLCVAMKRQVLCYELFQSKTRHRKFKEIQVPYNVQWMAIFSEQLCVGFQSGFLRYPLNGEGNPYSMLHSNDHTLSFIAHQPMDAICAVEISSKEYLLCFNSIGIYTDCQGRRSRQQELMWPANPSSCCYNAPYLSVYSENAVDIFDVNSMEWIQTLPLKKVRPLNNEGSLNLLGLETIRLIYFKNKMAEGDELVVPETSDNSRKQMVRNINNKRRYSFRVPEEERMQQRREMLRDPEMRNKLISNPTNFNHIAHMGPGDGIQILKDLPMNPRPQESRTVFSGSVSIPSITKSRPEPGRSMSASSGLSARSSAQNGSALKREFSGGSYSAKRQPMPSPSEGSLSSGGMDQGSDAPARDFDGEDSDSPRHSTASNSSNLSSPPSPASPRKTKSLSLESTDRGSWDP
Chain of UniProt O43318 (whole entry, looked up): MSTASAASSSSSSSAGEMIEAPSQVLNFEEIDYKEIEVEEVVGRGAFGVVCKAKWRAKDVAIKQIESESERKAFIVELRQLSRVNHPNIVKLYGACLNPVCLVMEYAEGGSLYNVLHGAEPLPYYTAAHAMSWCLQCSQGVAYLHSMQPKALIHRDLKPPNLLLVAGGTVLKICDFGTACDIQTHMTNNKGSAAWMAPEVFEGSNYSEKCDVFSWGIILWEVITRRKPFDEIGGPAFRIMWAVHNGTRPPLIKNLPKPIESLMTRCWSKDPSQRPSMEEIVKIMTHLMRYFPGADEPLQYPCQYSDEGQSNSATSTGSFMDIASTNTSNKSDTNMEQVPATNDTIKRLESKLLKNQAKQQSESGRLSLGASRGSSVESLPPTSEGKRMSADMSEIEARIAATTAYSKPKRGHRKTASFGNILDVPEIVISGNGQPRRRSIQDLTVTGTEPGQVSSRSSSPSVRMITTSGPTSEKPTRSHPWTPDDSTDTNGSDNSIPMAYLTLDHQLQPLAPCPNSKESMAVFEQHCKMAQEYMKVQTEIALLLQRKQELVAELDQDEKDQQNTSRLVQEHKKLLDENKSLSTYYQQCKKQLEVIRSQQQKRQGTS

Study 1
Target: Cyclin-dependent kinase 9, with cyclin T1 (CDK9, Homo sapiens, UniProt P50750)
Chain of UniProt P50750 (whole entry, looked up): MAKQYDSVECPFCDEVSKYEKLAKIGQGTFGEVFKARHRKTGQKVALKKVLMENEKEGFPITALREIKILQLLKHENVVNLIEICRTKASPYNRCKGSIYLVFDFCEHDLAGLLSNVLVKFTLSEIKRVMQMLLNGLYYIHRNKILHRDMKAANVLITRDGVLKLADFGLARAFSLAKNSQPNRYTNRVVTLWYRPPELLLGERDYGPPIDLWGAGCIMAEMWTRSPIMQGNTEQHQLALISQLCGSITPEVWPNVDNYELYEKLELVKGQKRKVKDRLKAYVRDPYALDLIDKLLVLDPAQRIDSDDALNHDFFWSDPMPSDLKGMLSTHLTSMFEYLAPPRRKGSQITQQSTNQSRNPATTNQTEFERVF
Observed: enzyme activity
Mode: inhibitor
Concentration: 0.5 µM
Relative to: control
The remaining activity of `NCCNc1ncc(C(N)=O)c(Nc2cccc(C(F)(F)F)c2)n1` is reported as 82%.
`COc1ccc(C(=O)Nc2sc3c(c2C(N)=O)CCCC3)cc1OC` has a remaining activity of 102%.
`CO[C@H]1C[C@@H]2CC[C@@H](C)[C@@](O)(O2)C(=O)C(=O)N2CCCC[C@H]2C(=O)O[C@H]([C@H](C)C[C@@H]2CC[C@@H](O)[C@H](OC)C2)CC(=O)[C@H](C)/C=C(\C)[C@@H](O)[C@@H](OC)C(=O)[C@H](C)C[C@H](C)/C=C/C=C/C=C/1C` gave a remaining activity of 87%.
`Oc1ccc(-c2nc(-c3ccncc3)c(-c3ccc(F)cc3)[nH]2)cc1` has a remaining activity of 83.4%.
With `OCC(O)CCON=C1C(c2c(O)[nH]c3ccccc23)=Nc2ccccc21` (stereo not shown) the remaining activity was 52.5%.
`COc1cc2nccc(Oc3ccc(NC(=S)NC(=O)c4ccccc4C)cc3)c2cc1OC` gave a remaining activity of 104%.
For `COc1ccc(CNC(=O)Nc2ncc([N+](=O)[O-])s2)cc1`, the remaining activity was 88.1%.
The remaining activity of `Nc1ncnc2n[nH]c(Nc3ccc(F)cc3)c12` is reported as 99.1%.
`Nc1[nH]nc2nc3ccccc3nc12` has a remaining activity of 81.6%.
`O=c1c2ccccc2[nH]c(=S)n1CCN1CCC(=C(c2ccc(F)cc2)c2ccc(F)cc2)CC1` gave a remaining activity of 102%.
With `Cc1cccc(-c2[nH]c(C(C)(C)C)nc2-c2ccc3c(c2)OCO3)n1` the remaining activity was 88.5%.
`O=C(Nc1cccc(Nc2cc(Nc3cccc(C(F)(F)F)c3)ncn2)c1)C1CC1` gave a remaining activity of 97.2%.

Study 2
Structure (SMILES): CN([C@@H]1CCc2c(CC(=O)O)c3cc(S(C)(=O)=O)ccc3n2C1)S(=O)(=O)c1ccc(F)cc1
Observed: cell-free assay
Technique: competition with immobilised ligand
Concentration: 1 µM
The remaining binding was 80% (ALK tyrosine kinase receptor (ALK, Homo sapiens, UniProt Q9UM73)).
For Calcium/calmodulin-dependent protein kinase type 1B (PNCK, Homo sapiens, UniProt Q6P2M8): remaining binding read 90%.
The remaining binding was 100% (Tyrosine-protein kinase SYK (SYK, Homo sapiens, UniProt P43405)).
Proto-oncogene tyrosine-protein kinase receptor Ret (RET, Homo sapiens, UniProt P07949, V804M) — remaining binding: 100%.
It gave 100% for remaining binding (Serine/threonine-protein kinase MRCK alpha (CDC42BPA, Homo sapiens, UniProt Q5VT25)).
Cyclin-dependent kinase 9 (CDK9, Homo sapiens, UniProt P50750) — remaining binding: 100%.
The remaining binding was 100% (Membrane-associated tyrosine- and threonine-specific cdc2-inhibitory kinase (PKMYT1, Homo sapiens, UniProt Q99640)).
The remaining binding was 100% (Megakaryocyte-associated tyrosine-protein kinase (MATK, Homo sapiens, UniProt P42679)).
It gave 100% for remaining binding (Mitogen-activated protein kinase kinase kinase 7 (MAP3K7, Homo sapiens, UniProt O43318)).

Study 3
Target: Prothrombin, mature alpha-thrombin (F2, Homo sapiens, UniProt P00734)
Technique: aptamer microarray, sandwich
Form: DNA with 2'F-ANA
Matrix: in vitro
Concentration: 200 nM
Setting: whole 15-mer aptamer, many near background
Added: Cy3 exosite-II aptamer, 400 nM
Direction: higher = stronger binding
Oligonucleotide: GGTTGGTGTGGTTGG
`2'F-ANA at 1 2 3 7 8 13` — result for “mean fluorescence intensity”: 246 a.u.
Under “mean fluorescence intensity”, `2'F-ANA at 2 3 5 6 8 9 13` is recorded as 75.3 a.u.
Under “mean fluorescence intensity”, `2'F-ANA at 1 3 4 6 7 10 11 13 14` is recorded as 53.5 a.u.
For `2'F-ANA at 1 2 4 9 11 12 14 15`, “mean fluorescence intensity” read 51.3 a.u.
Under “mean fluorescence intensity”, `2'F-ANA at 2 4 6 9 12 14 15` is recorded as 95.1 a.u.
`2'F-ANA at 1 4 5 6 8 9 10 12`: “mean fluorescence intensity” 47.5 a.u.
`2'F-ANA at 3 10 12 13 15`: “mean fluorescence intensity” 606 a.u.
For `2'F-ANA at 1 3 6 8 9 11 12 14 15`, “mean fluorescence intensity” read 95.6 a.u.

Mixed results
`CN(N=O)C(=O)N[C@@H]1[C@@H](O)[C@H](O)[C@@H](CO)O[C@@H]1O` gave a blood glucose of 520 mg/dL and 550 mg/dL and 598 mg/dL and 479 mg/dL and 580 mg/dL (mice, STZ diabetic neuropathy; dose not given, 28 days after STZ).
Under “fluctuation over tau”, `COc1ccc(-c2c(Nc3ccccn3)[nH]c3c(C4=CCCCC4)c(-c4ccccc4)nn3c2=O)cc1` is recorded as 40.6% and 40.1% and 42.1% (LC-MS/MS; human, plasma; oral, 50 mg once daily).

Repeated from above (study 3):
`2'F-ANA at 1 4 5 6 8 9 10 12`: “mean fluorescence intensity” 47.5 a.u.
For `2'F-ANA at 1 3 6 8 9 11 12 14 15`, “mean fluorescence intensity” read 95.6 a.u.
